# Assay results pooled from the literature.
# Lines come from different studies, so protocols differ. “And” joins repeats or separate records; there may be more than shown. ± gives the spread as reported.
# UniProt O60895, sequence (whole entry, looked up): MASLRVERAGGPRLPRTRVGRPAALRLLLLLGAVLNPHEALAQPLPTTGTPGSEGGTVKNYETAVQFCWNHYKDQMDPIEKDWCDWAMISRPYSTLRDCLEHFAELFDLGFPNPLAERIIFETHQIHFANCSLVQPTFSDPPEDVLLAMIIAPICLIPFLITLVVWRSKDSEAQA
# UniProt O96017, sequence (whole entry, looked up): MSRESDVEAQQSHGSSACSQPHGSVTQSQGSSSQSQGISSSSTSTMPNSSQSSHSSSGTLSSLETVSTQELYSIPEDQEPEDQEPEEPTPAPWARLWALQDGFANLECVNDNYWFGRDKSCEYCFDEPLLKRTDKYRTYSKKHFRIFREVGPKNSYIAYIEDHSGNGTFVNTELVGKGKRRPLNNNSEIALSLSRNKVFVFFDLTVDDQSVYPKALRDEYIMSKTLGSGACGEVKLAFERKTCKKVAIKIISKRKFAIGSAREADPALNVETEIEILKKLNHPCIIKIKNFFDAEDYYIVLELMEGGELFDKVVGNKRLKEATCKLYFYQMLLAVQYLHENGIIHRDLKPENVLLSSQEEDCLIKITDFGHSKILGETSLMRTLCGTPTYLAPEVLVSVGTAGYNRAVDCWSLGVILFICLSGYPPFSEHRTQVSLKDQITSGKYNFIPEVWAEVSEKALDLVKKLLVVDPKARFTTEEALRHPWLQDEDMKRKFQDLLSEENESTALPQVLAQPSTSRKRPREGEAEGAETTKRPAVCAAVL
# UniProt Q16602, sequence (whole entry, looked up): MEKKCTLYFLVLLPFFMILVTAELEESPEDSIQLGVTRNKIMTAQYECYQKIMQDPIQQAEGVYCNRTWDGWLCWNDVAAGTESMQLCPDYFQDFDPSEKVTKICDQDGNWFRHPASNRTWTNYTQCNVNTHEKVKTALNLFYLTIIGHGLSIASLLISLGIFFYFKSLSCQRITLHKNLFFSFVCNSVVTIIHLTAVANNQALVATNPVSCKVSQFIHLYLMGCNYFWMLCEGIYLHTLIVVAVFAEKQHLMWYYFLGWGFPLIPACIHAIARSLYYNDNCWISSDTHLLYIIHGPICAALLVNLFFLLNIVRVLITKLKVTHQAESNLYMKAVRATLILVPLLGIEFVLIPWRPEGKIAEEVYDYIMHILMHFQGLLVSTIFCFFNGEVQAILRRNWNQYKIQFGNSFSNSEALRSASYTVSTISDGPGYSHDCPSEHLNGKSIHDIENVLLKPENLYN
Structure (SMILES),target or system,test,system,setting,scale,quantity,value
COc1ccc(N2C(=O)N(c3c(C)cccc3Cl)Cc3cnc(Nc4ccc(C5CCN(C)CC5)cc4OC)nc32)nc1,"Serine/threonine-protein kinase Chk2 (CHEK2, Homo sapiens, UniProt O96017)",kinase activity,,0.5 µM,,inhibition,56%
CC(C)(O)c1cc(Nc2cc(Oc3cn(C4CC4)nc3C3CCOCC3)ccn2)ccn1,,Nausea,"patients with advanced cancer, grade 4 glioma expansion","oral, 50 mg twice daily, grade ≥3, 2 weeks on/2 weeks off schedule",,treatment-related adverse events,3%
CC(C)n1c(C2CCNCC2)nc2c([N+](=O)[O-])c(Br)c(Br)cc21,,,patients with AML,"125 mg, AST increased",,AE of any grade,24%
COc1cc(C(=O)NC2CCN(C)CC2)c(F)cc1Nc1ncc(C(F)(F)F)c(Oc2cccc3c2C(=O)N(C)C3)n1,,,"human patients, urine","oral, 25 mg single dose, geometric mean",reference: dose,fraction excreted in urine (0-48 h),6.15%
CC(C)(C)c1cc(-n2nc3ccccc3n2)c(O)c(C(C)(C)C)c1,,,EpiSkin reconstructed epidermis,36 h,,mass recovery,58.5%
CCCCCOc1ccc(-c2ccc(-c3ccc(C(=O)N[C@H]4C[C@@H](O)[C@@H](OCC[N+](C)(C)C)NC(=O)[C@@H]5[C@@H](O)[C@@H](C)CN5C(=O)[C@H]([C@@H](C)O)NC(=O)[C@H]([C@H](O)[C@@H](O)c5ccc(O)cc5)NC(=O)[C@@H]5C[C@@H](O)CN5C(=O)[C@H]([C@@H](C)O)NC4=O)cc3)cc2)cc1,,,"adult ICU patients, mITT, serum","dose not given, Follow-up",,bilirubin,12.2 µmol/L
C=CCNc1c(O)cc2c(O)c1C[C@@H](C)C[C@H](OC)[C@H](O)[C@@H](C)/C=C(\C)[C@H](OC(N)=O)[C@@H](OC)/C=C\C=C(/C)C(=O)N2,,,unresectable or metastatic sarcoma,"intravenous, 90 mg/m^2, grade 3-4 lab change",,patients with lipase increase,17%
CCCC1CCC(C2CCC(c3ccc(F)c(F)c3)CC2)CC1 (stereo not drawn),,,"rat, placenta","5000 ng/mL in perfusate, high dose, mixture of 21 LCMs",,placental accumulation,673 ± 1010 ng/g
C[C@H]1CN(c2n[nH]c3nc(N[C@H]4CC[C@H](NS(=O)(=O)CCC(F)(F)F)CC4)ncc23)CCO1,"Tyrosine-protein kinase SYK (SYK, Homo sapiens, UniProt P43405)","inhibitor, Kinobeads competition profiling",,20 µM,reference: vehicle,relative abundance,1.09
COc1cc(CCC[P+](c2ccccc2)(c2ccccc2)c2ccccc2)c(OC)c2c1OCO2.[I-],SF-268,SRB,,,,LC50,-4.29 log M
O=C(Nc1ccccc1)C1CCN(C(=O)Oc2cccnc2)CC1,,Bond-Lader VAS,healthy women,20 mg,"reference: pre-dose baseline, direction not given",change in calmness score,12
CC1(C)C(C=C(Cl)Cl)C1C(=O)OC(C#N)c1ccc(F)c(Oc2ccccc2)c1 (stereo not drawn),,item: CYP3A5,"human, age 1 year, recombinant human CYP3A5",0.1 µM,,enzyme contribution to clearance,0.21%
CO[C@H]1C[C@@H]2CC[C@@H](C)[C@@](O)(O2)C(=O)C(=O)N2CCCC[C@H]2C(=O)O[C@H]([C@H](C)C[C@@H]2CC[C@@H](OC(=O)NCCOCCOCCOCCOCCOCCOCCOCCOCCC(=O)N3CCc4cc(Cn5nc(-c6ccc7oc(N)nc7c6)c6c(N)ncnc65)ccc4C3)[C@H](OC)C2)C[C@@H](O)[C@H](C)/C=C(\C)[C@@H](O)[C@@H](OC)C(=O)[C@H](C)C[C@H](C)/C=C/C=C/C=C/1C,,"phase 1 dose escalation, item: gastric haemorrhage",advanced solid tumour patients,"intravenous, 8 mg weekly, any grade",,dose-reducing adverse events,0%
O=C1Nc2cc3[nH]nc(-c4ccncc4)c3cc2CN1Cc1ccccc1,,CTCAE v4.03,advanced solid tumour patients,"intravenous, 7.2 mg/kg, schedules 1/2",,patients with decreased appetite,20%
[O-][S+]1CCc2nc(N3CCC(c4ncc(Cl)cn4)CC3)nc(NC3(CO)CCC3)c21 (stereo not drawn),,item: upper abdominal pain,healthy male humans,48 mg single dose,,adverse event incidence,0%
COc1cc2c(Oc3ccc4[nH]c(C)cc4c3F)ccnc2cc1OCC1(N)CC1,,,paediatric recurrent refractory sarcoma,8 mg/kg,,grade 1 or 2 sinus bradycardia,6.7%
N#C[C@@]1(n2ccc(N)nc2=O)O[C@H](CO)[C@@H](O)[C@H]1O,,,"CD-1 mouse, plasma","oral, 30 mg/kg",,AUC(0-inf),34900 ng·h/mL
COc1ncccc1-c1cnn2ccc(N3CCN(C(=O)OC(C)C)CC3)nc12,,,"rat, STZ model, plasma","oral, 30 mg/kg, 240 min",,free drug concentration,423 nM
C[C@@H](O)[C@H](NC(=O)[C@@H]1CSSC[C@H](NC(=O)[C@@H](Cc2ccccc2)NC(=O)CN2CCN(CC(=O)[O-])CCN(CC(=O)[O-])CCN(CC(=O)[O-])CC2)C(=O)N[C@@H](Cc2ccc(O)cc2)C(=O)N[C@H](Cc2c[nH]c3ccccc23)C(=O)N[C@@H](CCCCN)C(=O)N[C@@H]([C@@H](C)O)C(=O)N1)C(=O)O.[177Lu+3],MEC1,,,"120 min, 37 °C",,cell uptake,2.03%
CN1C(=O)[C@@H](NC(=O)c2nnc(Cc3ccccc3)[nH]2)COc2cccnc21,,phase I multiple ascending dose,"human, male and female","oral, 600 mg, 14 days",,participants with TEAE leading to death,0%
CC[C@H](C)[C@H](NC(=O)[C@H](Cc1ccccc1)NC(=O)[C@H](CCC(=O)O)NC(=O)[C@H](CCCNC(=N)N)NC(=O)[C@H](C)NC(=O)[C@H](C)NC(=O)[C@H](CCC(N)=O)NC(=O)[C@H](CCC(=O)O)NC(=O)[C@H](CCC(=O)O)NC(=O)[C@H](CC(C)C)NC(=O)[C@H](Cc1ccc(O)cc1)NC(=O)[C@H](CO)NC(=O)[C@H](CO)NC(=O)[C@@H](NC(=O)[C@H](CC(=O)O)NC(=O)[C@H](CO)NC(=O)[C@@H](NC(=O)[C@H](Cc1ccccc1)NC(=O)[C@@H](NC(=O)CNC(=O)[C@H](CCC(=O)O)NC(=O)[C@H](C)NC(=O)CCc1cnc[nH]1)[C@@H](C)O)[C@@H](C)O)C(C)C)C(=O)N[C@@H](C)C(=O)N[C@@H](Cc1c[nH]c2ccccc12)C(=O)N[C@@H](CC(C)C)C(=O)N[C@H](C(=O)N[C@@H](CCCNC(=N)N)C(=O)NCC(=O)N[C@@H](CCCNC(=N)N)C(=O)N[C@@H](CCCCNC(=O)COCCOCCNC(=O)COCCOCCNC(=O)CC[C@H](NC(=O)CCCCCCCCCCCCCCCCC(=O)O)C(=O)O)C(=O)NCC(=O)NCC(=O)N[C@@H](CO)C(=O)N[C@@H](CCCCNC(=O)[C@H](CCCCNC(=O)[C@H](CCCCNc1c(NCCCCCN(O)C(=O)CCC(=O)NCCCCCN(O)C(=O)CCC(=O)NCCCCCN(O)C(C)=O)c(=O)c1=O)Nc1c(NCCCCCN(O)C(=O)CCC(=O)NCCCCCN(O)C(=O)CCC(=O)NCCCCCN(O)C(C)=O)c(=O)c1=O)NC(=O)[C@H](CCCCNc1c(NCCCCCN(O)C(=O)CCC(=O)NCCCCCN(O)C(=O)CCC(=O)NCCCCCN(O)C(C)=O)c(=O)c1=O)Nc1c(NCCCCCN(O)C(=O)CCC(=O)NCCCCCN(O)C(=O)CCC(=O)NCCCCCN(O)C(C)=O)c(=O)c1=O)C(=O)O)C(C)C [zirconium-89 labelled],,ex vivo gamma counting,"Sprague-Dawley rat, male, lung","intravenous, 1 nmol, 24 h",,tissue uptake,0.579 %ID/g and 0.576 %ID/g and 0.606 %ID/g and 0.658 %ID/g and 0.529 %ID/g
COc1c(CCC[P+](c2ccccc2)(c2ccccc2)c2ccccc2)cc2c(c1OC)OCO2.[I-],SF-295,SRB,,,,LC50,-4.29 log M
CCCC(CCC)NC(=O)c1ccc2c(c1)OCO2,,,"Swiss albino CD-1 mice, male, bone marrow","intraperitoneal, 700 mg/kg, 24 h",,PCE/NCE ratio,0.8
CCc1ccc(CC/C=C/c2ccc3c(c2)C(=O)CC3)cc1,,,"Sprague-Dawley rat, female","oral, 450 mg/kg/day, 14 days",,TG,0.4 mM
O=S(=O)(Nc1ccccc1)c1ccc(NC(=S)Nc2ccccc2)cc1,,,"male mouse, blood","oral, 20 mg/kg daily, 14 days",,cholesterol level,206 mg/dL
O=C(O)C[C@H](NC(=O)[C@H](CC(=O)O)NC(=O)[C@H](CC(=O)O)NC(=O)[C@H](CC(=O)O)NC(=O)[C@H](CC(=O)O)NC(=O)[C@H](CC(=O)O)NC(=O)[C@H](CC(=O)O)NC(=O)[C@H](CC(=O)O)NC(=O)[C@H](CC(=O)O)NC(=O)[C@H](CC(=O)O)NC(=O)[C@H](CC(=O)O)NC(=O)[C@H](CCCCNC(=O)c1ccc(C(=O)NCCOCCOB2BBBBBB3BBBB3B2)cc1)NC(=O)CN1CCN(CC(=O)O)CCN(CC(=O)O)CCN(CC(=O)O)CC1)C(=O)O [gallium-67 labelled],,,"ddY male mice, muscle","intravenous, 37 kBq, 1 h",,tissue uptake,0.52 %ID/g
CCCSc1ccc2nc(NC(=O)OC)[nH]c2c1,,,"mouse, blood","oral, 50 mg/kg",,red cell distribution width (SD),27.7 fL
Cn1c(-c2ccc(C(N)=O)cc2F)nnc1C(C)(C)Oc1c(F)cc(Cl)cc1F,,,human,"oral, dose not given, single ascending dose all doses",,subjects with nervous system TEAE,5.6%
CC(C)[C@@H]1NC(=O)CNC(=O)[C@H](CC(N)=O)NC(=O)[C@H](CCCNC(=N)N)NC(=O)[C@H](Cc2ccc(O)cc2)NC(=O)[C@H](C(C)C)NC(=O)[C@@H](NC(=O)[C@@H](NC(=O)[C@H](CC(N)=O)NC(=O)[C@H](Cc2c[nH]c3ccccc23)NC(=O)[C@H](C)NC(=O)[C@H](Cc2ccccc2)NC(=O)CN)C(C)C)CSSC[C@@H](C(=O)N[C@@H](Cc2cnc[nH]2)C(=O)N[C@@H](CCCNC(=N)N)C(=O)N[C@@H](CCCNC(=N)N)C(=O)N[C@@H](C)C(=O)N[C@@H](CC(N)=O)C(N)=O)NC(=O)[C@H](C(C)C)NC(=O)[C@H](CCCNC(=N)N)NC1=O,,,"ICR mice, blood","intraperitoneal, 5 mg/kg, day 5",,basophils,1.46 ± 0.16%
CC(C)c1nc(N(C)S(C)(=O)=O)nc(-c2ccc(F)cc2)c1/C=C/[C@@H](O)C[C@@H](O)CC(=O)O,,,healthy human subjects,"oral, dose not given, study CL-0537 safety set",,incidence of Laceration,3.6%
Clc1ccc(-c2ccccc2)cc1,,,"Sprague-Dawley rat, female, serum","inhalation, 35 µg/rat, 24 h",,albumin,3 ± 0.2 g/dL
COc1cc(Nc2ncc(F)c(Nc3ccc4c(n3)NC(=O)C(C)(C)O4)n2)cc(OC)c1OC,"Adrenomedullin receptor AM1; CALCRL/RAMP2 (Homo sapiens, UniProt O60895+Q16602)",,,,,IC50,> 10 µM
C[C@]1(CO)Cc2ncn(-c3ccc(C#N)c(Cl)c3)c2C(=O)O1,,,human,"3 mg multiple doses, fasted",,subjects with drug-related dizziness,0%
O=C(O)CCCOc1ccc(F)cc1-c1cc(-c2ccccc2C(F)(F)F)n(-c2ccccc2)n1,,item: thyroid,"Crl:CD(SD) rats, female","iv, 25 µg/kg, 1 day",,relative organ weight,8 ± 0.9 mg%
CC(C)(C)[C@H](NC(=O)[C@H](CCONC(=N)N)NC(=O)Cc1ccc(CNC(=N)N)cc1)C(=O)N[C@@H](CCONC(=N)N)C(=O)NCc1ccc(C(=N)N)cc1,,,"Sprague Dawley rat, male, plasma","intravenous, 1 mg/kg, 3 h",,concentration at time,154 ng/mL
NC(=O)N1c2ccccc2C=Cc2ccccc21,,PAMPA,pre-coated trilayer membrane,"200 µM, 5 h, pH 7.4, donor plate, PBS",,donor concentration,150 ± 6 µM
COc1ccc(C[C@@H]2NC(=O)[C@H]([C@@H](C)O)NC(=O)[C@@H]3[C@@H]4CCN3C(=O)[C@@H]3Cc5cn(c6ccc(F)cc56)CCCCCCN(Cc5ccc(cc5)CCNC(=O)[C@]5(C)CCCN5C2=O)C(=O)CCC(=O)N[C@@H](C)C(=O)N[C@H](CNC(=O)CCCCC[N+](C)(C)C)C(=O)N[C@@H](Cc2cccc(c2)CNC(=O)CO4)C(=O)N3)cc1,,item: Fatigue,humans,"concentration not given, Study-001",,participants with adverse event,2%
Cn1cccc1-c1cccnc1,,one-compartment model,rat,"intravenous, 25 % of nicotine, clinically relevant dose",,slowing of nicotine clearance,~50%
Cn1cc(-c2nc(N[C@@H]3CCCC[C@@H]3N)c(F)c3c2C(=O)NC3)cn1,,epistaxis,patients with relapsed or refractory AML,"oral, 60 mg once daily",,adverse events,25%
Cn1ncc(-c2nc(N[C@H]3CC[C@H](N)CC3)ncc2Cl)c1CC1CC1,,phase I dose escalation,human patients,"dose not given, any-grade TEAE",,febrile neutropenia incidence,37%
COc1ccc(CCC2CCCC(CCc3ccc(OC)cc3)N2C[C@@H](O)CO)cc1.Cl (stereo in doubt),,,rabbit Purkinje fibres,"0.1 µM, cycle length 1 s",reference: baseline,action potential amplitude change,-0.1 ± 3.6 mV
CCN1CCN(Cc2ccc(Nc3ncc(F)c(-c4cc(F)c5nc6n(c5c4)[C@H](C)CCC6)n3)nc2)CC1,,Phase Ia dose escalation,patients with advanced solid tumours,"dose not given, monotherapy, any grade",,creatinine renal clearance decreased,33.3%
